# Assay results of several laboratories.
# Each numbered part is a random draw from the data of one study; scales do not carry over between parts. Several values in a cell are separate wells, animals, samples, runs or records.

# Series 1 — method: KINOMEscan; notes: unit not given; baseline: DMSO
# SMILES: CCOc1ccc2nc(Sc3nc(Nc4ccc(I)cc4)nc(N4CCOCC4)n3)sc2c1
# Target: 1-phosphatidylinositol 3-phosphate 5-kinase (PIKFYVE, Homo sapiens, UniProt Q9Y2I7)
# Chain of UniProt Q9Y2I7 (whole entry, looked up): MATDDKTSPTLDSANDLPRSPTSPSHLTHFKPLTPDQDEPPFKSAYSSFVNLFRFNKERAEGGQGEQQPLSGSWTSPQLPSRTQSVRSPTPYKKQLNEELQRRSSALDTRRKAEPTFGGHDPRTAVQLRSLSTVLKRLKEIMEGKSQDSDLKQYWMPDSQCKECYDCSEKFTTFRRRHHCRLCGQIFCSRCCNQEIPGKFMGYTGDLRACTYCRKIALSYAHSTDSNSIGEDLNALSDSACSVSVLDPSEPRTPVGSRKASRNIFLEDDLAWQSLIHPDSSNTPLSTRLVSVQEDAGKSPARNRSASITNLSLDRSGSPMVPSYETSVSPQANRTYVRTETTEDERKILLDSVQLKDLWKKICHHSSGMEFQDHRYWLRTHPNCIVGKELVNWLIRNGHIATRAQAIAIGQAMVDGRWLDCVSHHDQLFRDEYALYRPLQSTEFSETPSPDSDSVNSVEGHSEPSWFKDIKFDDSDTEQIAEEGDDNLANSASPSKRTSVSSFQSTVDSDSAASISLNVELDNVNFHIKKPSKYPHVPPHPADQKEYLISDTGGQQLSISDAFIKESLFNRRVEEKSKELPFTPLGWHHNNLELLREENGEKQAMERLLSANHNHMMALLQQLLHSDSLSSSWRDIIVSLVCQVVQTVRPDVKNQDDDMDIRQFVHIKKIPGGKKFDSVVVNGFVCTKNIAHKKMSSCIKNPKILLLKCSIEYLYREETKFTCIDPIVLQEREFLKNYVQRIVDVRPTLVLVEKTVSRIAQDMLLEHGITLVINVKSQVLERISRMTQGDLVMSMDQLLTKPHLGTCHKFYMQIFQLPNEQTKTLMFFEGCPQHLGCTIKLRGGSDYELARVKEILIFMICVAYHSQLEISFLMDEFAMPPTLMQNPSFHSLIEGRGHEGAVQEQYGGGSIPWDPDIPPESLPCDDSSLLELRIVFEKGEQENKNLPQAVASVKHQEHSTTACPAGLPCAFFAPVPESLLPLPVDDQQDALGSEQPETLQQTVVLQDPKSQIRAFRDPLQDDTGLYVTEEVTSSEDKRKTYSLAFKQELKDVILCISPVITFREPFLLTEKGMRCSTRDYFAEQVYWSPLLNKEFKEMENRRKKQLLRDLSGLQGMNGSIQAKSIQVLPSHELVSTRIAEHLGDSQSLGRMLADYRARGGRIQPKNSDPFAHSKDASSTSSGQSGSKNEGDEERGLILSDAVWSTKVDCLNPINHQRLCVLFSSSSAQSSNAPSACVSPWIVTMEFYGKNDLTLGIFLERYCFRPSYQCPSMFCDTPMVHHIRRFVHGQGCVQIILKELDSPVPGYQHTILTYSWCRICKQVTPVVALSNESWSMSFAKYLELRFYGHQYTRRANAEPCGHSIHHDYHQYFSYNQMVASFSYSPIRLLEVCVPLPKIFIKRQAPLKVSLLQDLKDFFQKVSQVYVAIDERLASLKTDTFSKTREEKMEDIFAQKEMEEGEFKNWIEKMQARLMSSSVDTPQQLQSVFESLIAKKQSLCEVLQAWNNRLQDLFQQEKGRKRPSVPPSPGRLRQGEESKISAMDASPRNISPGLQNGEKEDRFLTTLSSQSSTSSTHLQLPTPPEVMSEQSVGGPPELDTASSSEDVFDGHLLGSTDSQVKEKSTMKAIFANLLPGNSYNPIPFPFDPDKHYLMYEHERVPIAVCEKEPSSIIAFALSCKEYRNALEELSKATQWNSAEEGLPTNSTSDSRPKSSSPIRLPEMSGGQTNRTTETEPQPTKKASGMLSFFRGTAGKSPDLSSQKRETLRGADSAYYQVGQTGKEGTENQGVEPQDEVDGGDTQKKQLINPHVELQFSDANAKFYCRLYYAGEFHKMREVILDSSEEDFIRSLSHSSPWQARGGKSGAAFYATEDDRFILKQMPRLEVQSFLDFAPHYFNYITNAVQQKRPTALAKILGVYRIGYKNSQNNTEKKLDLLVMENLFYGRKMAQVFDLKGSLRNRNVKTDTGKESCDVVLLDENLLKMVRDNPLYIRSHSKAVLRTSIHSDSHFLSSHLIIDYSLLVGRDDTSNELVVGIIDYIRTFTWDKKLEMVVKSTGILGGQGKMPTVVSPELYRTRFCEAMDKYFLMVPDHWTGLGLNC
setting,remaining binding
367 nM,0.0674 and 0.064
3330 nM,0.0054 and 0.00545
0.508 nM,0.853 and 0.846
40.7 nM,0.462 and 0.438
41.2 nM,0.418 and 0.509
4.53 nM,0.93 and 0.853
3300 nM,0.00686 and 0.00481
9900 nM,0.00259 and 0.00238

# Series 2 — notes: mean
# Structure (SMILES): Cn1cc(-c2cccc(CN3CCC4(CC3)COc3c4ccc4c3CN([C@H]3CCC(=O)NC3=O)C4=O)c2)cn1
system,setting,remaining compound [%]
rat plasma,120 min,95.9
monkey plasma,15 min,108
mouse plasma,15 min,114
mouse plasma,5 min,116
rat plasma,30 min,118
human plasma,30 min,109
human plasma,15 min,109
rat plasma,60 min,110
monkey plasma,120 min,100
human plasma,5 min,108

# Further values, each from its own experiment
Compound,target or system,assay,system,setting,scale,quantity,result
CC(C)NC(=O)N1CCC(NC2=Nc3cc(F)ccc3N(CC(F)F)c3ccc(Cl)cc32)C1 (stereo in doubt),sample C colorectal tumour organoid,,,0.1 µM,baseline: DMSO,viability,95.8%
C=CCN1C(=O)C(O)(C(=O)O)Oc2cc(F)ccc21 (centres unmarked),Arabidopsis thaliana,hypocotyl length,"Col-0, seedlings",3.125 µg/mL,,inhibition,0.43%

# For quick reference, copied from above (series 2):
system,setting,remaining compound [%]
rat plasma,120 min,95.9
monkey plasma,15 min,108
mouse plasma,15 min,114
